Results collected from several papers.
Lines come from different studies, so protocols differ. ± gives the spread as reported.
Technique: steady-state kinetics
B1: enzyme H376D (Acetivibrio thermocellus, UniProt A3DJ38); chain MKLTIPELSLVVLIGSSGSGKSTFAKKHFKPTEVISSDFCRGLVSDDENDQTVTGAAFDVLHYIVSKRLQLGKLTVVDATNVQESARKPLIEIAKDYHCFPVAVVFNLPEKVCQERNKNRTDRQVEEYVIRKHTQQLKKSIKGLQREGFRYVYILNSPEEVEEVVFERQPLWNNKKDEHGPFDIIGDIHGCYDELKMLLEKLGYLIEEVEGGVGSGKYRVTHPEGRKVLFLGDLVDRGPKITEVLKLVMGMVKSGIALCVPGNHDVKLLRKLNGRDVQITHGLDRTLEQLAKEPQEFIEEVKAFIDGLVSHYVLDDGKLVVAHAGMKEEFQGRGSGKVREFALYGETTGETDEYGLPVRYDWASDYRGKALVVYGDTPQAEVLKVNNTINIDTGCVFGGKLTAYRYPEREIVDVKALKTYYEPAKPFLPKEDMAERFEARTDNDILDINDVLGKKIITTRLMSSITIHEENSIAALEVMSRFAADPHWLIYLPPTMSPCETSKKEGMLEHPIEAFEYFRTRGVGKVVCEQKHMGSRAVVIVCKDSQVAEKRFGVLDGTAGICYTRTGRHFFDDMQLEAELIDRVRKVLDKSGFWGDFNTDWVCLDCELMPWSAKAQKLLEEQYSAVGISGRVVLDEAVKLLKQASLNKTVSFDVSRQTSGKNADINELLQRFTERSEMMQKYVEAYRKYCWPVNSIDDLKLAPFHILATEGKVHSDKNHIWHMDTIAKYCTQDDSLIMATNHILVDVTDAESVDKGIKWWEDLTASGGEGMVVKPYDFIVKNGRELLQPAVKCRGREYLRIIYGPEYTMDENIERLRNRAVGKKRSLALREFSLGMEALERFVRNEPLYRVHECVFGVLALESEPVDPRL
B2: protein (Prochlorococcus marinus, UniProt Q7V6D4); chain MPTLEMPVAAVLDSTVGSSEALPDFTSDRYKDAYSRINAIVIEGEQEAHDNYIAIGTLLPDHVEELKRLAKMEMRHKKGFTACGKNLGVEADMDFAREFFAPLRDNFQTALGQGKTPTCLLIQALLIEAFAISAYHTYIPVSDPFARKITEGVVKDEYTHLNYGEAWLKANLESCREELLEANRENLPLIRRMLDQVAGDAAVLQMDKEDLIEDFLIAYQESLTEIGFNTREITRMAAAALVS
B3: enzyme (Psilocybe cubensis, UniProt P0DPA8); chain MAFDLKTEDGLITYLTKHLSLDVDTSGVKRLSGGFVNVTWRIKLNAPYQGHTSIILKHAQPHMSTDEDFKIGVERSVYEYQAIKLMMANREVLGGVDGIVSVPEGLNYDLENNALIMQDVGKMKTLLDYVTAKPPLATDIARLVGTEIGGFVARLHNIGRERRDDPEFKFFSRNIVGRTTSDQLYQTIIPNAAKYGVDDPLLPTVVKDLVDDVMHSEETLVMADLWSGNILLQLEEGNPSKLQKIYILDWELCKYGPASLDLGYFLGDCYLISRFQDEQVGTTMRQAYLQSYARTSKHSINYAKVTAGIAAHIVMWTDFMQWGSEEERINFVKKGVAAFHDARGNNDNGEITSTLLKESSTA
B4: nitrilase Y142A (Rhodococcus rhodochrous, UniProt A4LA85); chain MVEYTNTFKVAAVQAQPVWFDAAKTVDKTVSIIAEAARNGCELVAFPEVFIPGYPYHIWVDSPLAGMAKFAVRYHENSLTMDSPHVQRLLDAARDHNIAVVVGISERDGGSLYMTQLIIDADGQLVARRRKLKPTHVERSVAGEGNGSDISVYDMPFARLGALNCWEHFQTLTKYAMYSMHEQVHVASWPGMSLYQPEVPAFGVDAQLTATRMYALEGQTFVVCTTQVVTPEAHEFFCENEEQRKLIGRGGGFARIIGPDGRDLATPLAEDEEGILYADIDLSAITLAKQAADPVGHYSRPDVLSLNFNQRRTTPVNTPLSTIHATHTFVPQFGALDGVRELNGADEQRALPSTHSDETDRATASI
B5: enzyme (Campylobacter jejuni, UniProt Q0P9V0); chain MIKSIPEWSEQEYLMLSLPHEKSDWNPYLEEILQSYKEFVKVVSEFQKVLLIAPKQSDFENFKDIKNVEFFKCDTNDTWIRDFGAIDIVENGRLKALDFTFNAWGNKFQSELDNAVNSKLFKEKFKEELKKVDFILEGGSIDFNGEGVMLTSSHCLLNENRNSHLNKTQIDTKLKEIFGLKQIIWLENGFIKGDDTDHHIDTLARFIDKNTIAHCICEDEEDEHYLPLQKMKEELKKTGFDLLELPIPKPLYYEERRLGATYANFVFINNALIVPFYKDKNDEIIAKRLSKALPNHKIIGVDARVFLRQNGSLHCSCQNRFKGLR
B6: GLYR2 (Arabidopsis thaliana, UniProt F4I907); chain STRDELGTVSIGFLGMGIMGSPMAQNLIKAGCDVTVWNRTKSKCDPLVGLGAKYKSSPEEVTATCDLTFAMLADPESAIDVACGKNGAIFGISSGKGYVDVSTVDVASSILISKQIKDTGALFLEAPVSGSKKPAEDGQLIFLTAGDKPLYEKAAPFLDIMGKSKFYLGEVGNGAAMKLVVNMIMGSMMASFAEGILLSQKVGLDPNVLVEVVSQGAINAPMYSLKGPSMIKSVYPTAFPLKHQQKDMRLALGLAESVSQSTPIAAAANELYKVAKSYGLSDEDFSAVIEALKAAKSREA
B7: protein F432L (Streptomyces toyocaensis, UniProt Q8KLK7); chain MTTVLPPLEDTDGLWAALTEAAASVEKLLATLPEHGARSSAERAEIAAAHDAARALRVRFLDTHADAVYDRLTDHRRVHLRLAELVEAAATAFPGLVPTQQQLAVERSLPQAAKEGHEIDQGIFLRAVLRSPLAGPHLLDAMLRPTPRALELLPEFVRTGEVEMEAVHLERRDGVARLTMCRDDRLNAEDGQQVDDMETAVDLALLDPGVRVGLLRGGVMSHPRYRGKRVFSAGINLKYLSQGGISLVDFLMRRELGYIHKLVRGVLTNDDRPGWWHSPRIEKPWVAAVDGFAIGGGAQLLLVFDRVLASSDAYFSLPAAKEGIIPGAANLRLGRFAGPRVSRQVILEGRRIWAKEPEARLLVDEVVEPDELDAAIERSLTRLDGDAVLANRRMLNLADESPDGFRAYMAEFALMQALRLYGHDVIDKVGRLGGRPPA
UniProt Q99042, sequence (whole entry, looked up): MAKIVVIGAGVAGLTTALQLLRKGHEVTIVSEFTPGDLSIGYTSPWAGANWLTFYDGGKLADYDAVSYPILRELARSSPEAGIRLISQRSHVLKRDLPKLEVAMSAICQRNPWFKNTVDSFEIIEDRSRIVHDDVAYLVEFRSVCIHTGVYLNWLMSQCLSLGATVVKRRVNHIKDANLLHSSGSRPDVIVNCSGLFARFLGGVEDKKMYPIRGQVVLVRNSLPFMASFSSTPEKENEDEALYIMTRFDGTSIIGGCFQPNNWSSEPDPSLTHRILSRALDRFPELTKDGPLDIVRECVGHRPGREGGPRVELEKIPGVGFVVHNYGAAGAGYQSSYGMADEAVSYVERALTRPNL

Substance = tgt C145V/T146V/V217G (Escherichia coli); substrate = Nc1nc2nc[nH]c2c(=O)[nH]1; setting = pH 7.3, 37 °C; kcat = 0.00122 s⁻¹
Substance = B1 (enzyme H376D); substrate = Nc1ncnc2c1ncn2[C@@H]1O[C@H](CO)[C@H]2OP(=O)(O)O[C@H]21; setting = pH 7.5, 45 °C; kcat = 3.2 ± 0.767 s⁻¹
Substance = B2 (protein); substrate = CCCC=O; setting = pH 7.2, 37 °C, apparent, micro-aerobic; kcat = 5.17e-05 ± 1.67e-06 s⁻¹
Substance = DAO1 (Trigonopsis variabilis, UniProt Q99042); substrate = O=C1C(Cl)=CC(=Nc2ccc(O)cc2)C=C1Cl; setting = pH 8, 22 °C, varied electron acceptor, apparent, together with: D-methionine 200 mM; kcat = 0.033 ± 0.001 s⁻¹
Substance = B3 (enzyme); substrate = CN(C)CCc1c[nH]c2cccc(O)c12; setting = pH 7, 40 °C; kcat = 16.1 s⁻¹
Substance = B4 (nitrilase Y142A); substrate = Cc1cccc(C#N)c1; setting = pH 7.5, 25 °C; kcat = 0.000188 ± 1e-05 s⁻¹
Substance = B5 (enzyme); substrate = N=C(N)NCCCCN; setting = pH 7, 37 °C; kcat = 0.00533 ± 0.000333 s⁻¹
Substance = plcB (Listeria monocytogenes, UniProt P33378); substrate = CCCCCC(=O)OC[C@H](COP(=O)([O-])OCC[N+](C)(C)C)OC(=O)CCCCC; setting = pH 6, 37 °C; kcat = 12.8 ± 1.5 s⁻¹
Substance = B6 (GLYR2); substrate = NC(=O)C1=CN([C@@H]2O[C@H](COP(=O)(O)OP(=O)(O)OC[C@H]3O[C@@H](n4cnc5c(N)ncnc54)[C@H](OP(=O)(O)O)[C@@H]3O)[C@@H](O)[C@H]2O)C=CC1; setting = pH 7.6, 30 °C, cofactor varied; kcat = 12 ± 0.8 s⁻¹
Substance = B7 (protein F432L); substrate = CC(C)(COP(=O)(O)OP(=O)(O)OC[C@H]1O[C@@H](n2cnc3c(N)ncnc32)[C@H](O)[C@@H]1OP(=O)(O)O)[C@@H](O)C(=O)NCCC(=O)NCCSC(=O)Cc1cc(O)cc(O)c1; setting = pH 7.5, 24 °C, together with: O2; kcat = 0.03 ± 0.02 s⁻¹

Some of these lines once more:
Substance = B7 (protein F432L); substrate = CC(C)(COP(=O)(O)OP(=O)(O)OC[C@H]1O[C@@H](n2cnc3c(N)ncnc32)[C@H](O)[C@@H]1OP(=O)(O)O)[C@@H](O)C(=O)NCCC(=O)NCCSC(=O)Cc1cc(O)cc(O)c1; setting = pH 7.5, 24 °C, together with: O2; kcat = 0.03 ± 0.02 s⁻¹
